Assay results from different studies.
Protocols differ between the studies behind these lines. ± gives the spread as reported.

Structure (SMILES)	assay	test system	conditions	how to read	endpoint	result
CCOCc1nc(O)c(-c2nnc(Cc3ccc(Cl)cn3)o2)c(O)c1-c1c(OC)cccc1OC	–	renal hypertensive rat	oral, 0.1 mg/kg twice daily, day 7, trough	relative to: vehicle	heart rate change	-5%
O=C(O)c1ccc(-c2coc3ncc(-c4ccccc4)cc23)cc1Cl	[3H]-2-deoxyglucose uptake	mouse EDL muscle ex vivo	concentration not given, together with: muscle contraction	–	glucose uptake	inhibited
CC(C)c1cnc(-c2cc(Cl)ccc2F)cc1Nc1ccncc1C(=O)NC(CO)CO	SMAD2 phosphorylation	mouse, 4T1 tumour, tumour	30 mg/kg twice daily then once, 3 h, normalized maximum	–	inhibition	70%
CC/C=C\C/C=C\C/C=C\C/C=C\C/C=C\CCCCOC(CC)C(=O)O (stereo not shown)	–	APOE*3Leiden.CETP mice, high-fat/cholesterol diet	dose not given, 20 weeks	relative to: control	hepatic bile acids	decreased
CC(=O)[O-].O.O.O.O.[Mn+2].[O-]c1ccc(Br)cc1C=NCCN1CCOCC1	superoxide scavenging	–	240 µM	–	inhibition	53.8%
COc1ccc(C2CC(c3ccc(C)cc3)=Nc3ccccc3S2)cc1 (stereo not shown)	–	Wistar rat, STZ-induced diabetes, serum	20 mg/kg, 28 days	–	AST (SGOT)	21.8 ± 2.16 IU/L
COc1c2c(cc3oc(CO)cc(=O)c13)O[C@H](C(C)(C)O)C2	analgesia	mouse	oral, 4 mg/kg, 0.5 h	–	hot plate latency	13.9 ± 3.63 s
COc1cc(CNC(=O)CCCC/C=C/C(C)C)ccc1O	–	male Sprague-Dawley rat, LAD occlusion-reperfusion	iv, 1.0 mg/kg, 30 min before ischemia, 30 min occlusion, 2 h reperfusion	relative to: area at risk	infarct size	49 ± 2%
Cc1cc(O)c(C=O)c2c1C(=O)Oc1c(CO)c(O)c3c(c1O2)C(O)OC3=O (stereo not shown)	–	streptozotocin diabetic male rats	5 mg/kg, 0 weeks	–	body weight	198 ± 7.91 g
CC(=O)C12NC(C)(C)CC1(C)C(=O)C1=C2c2c(c3c4n2C(C)(C)CC2=C4C4(CC(C)(C)NC(C)(C4)C2=O)CC3(C)C)C(=O)C(C)(C)N1 (single isomer, unassigned; (+))	acetic acid-induced writhing	mouse	intraperitoneal, 0.2 mg/kg, 0.5 h, writhes counted over 30 min	–	inhibition	61.5 ± 2.4%
COc1ccc2c(c1)c(CC(=O)OCC(=O)OC(C)(C)C)c(C)n2C(=O)c1ccc(Cl)cc1	hot plate test	BALB/c mice	75 mg/kg, 60 min	–	latency of nociceptive response	16.8 ± 2.11 s
C=C(c1ccc(C(=O)O)c(F)c1)c1cc2c(cc1C)C(C)(C)C=CC2(C)C	RNA sequencing, item: Lrrc4c mRNA	rat, brain	dose not given, 24 h, single dose	relative to: vehicle	log2 fold change	-0.35
COc1ccc(C2CC(c3ccc(C)cc3)=Nc3ccccc3S2)cc1OC (stereo not shown)	–	Wistar rat, STZ-induced diabetes, serum	oral, 10 mg/kg once daily, 28 days	–	AST (SGOT)	23.9 ± 2.11 IU/L

Excerpt of the above:
Structure (SMILES)	assay	test system	conditions	how to read	endpoint	result
COc1cc(CNC(=O)CCCC/C=C/C(C)C)ccc1O	–	male Sprague-Dawley rat, LAD occlusion-reperfusion	iv, 1.0 mg/kg, 30 min before ischemia, 30 min occlusion, 2 h reperfusion	relative to: area at risk	infarct size	49 ± 2%
Cc1cc(O)c(C=O)c2c1C(=O)Oc1c(CO)c(O)c3c(c1O2)C(O)OC3=O (stereo not shown)	–	streptozotocin diabetic male rats	5 mg/kg, 0 weeks	–	body weight	198 ± 7.91 g
